# Published values of several laboratories.
# Numbered parts are unrelated; each lists some results of a single study.

# Series 1 — technique: aptamer microarray, sandwich; molecule type: DNA with 2'F-ANA; sample: in vitro; concentration: 200 nM; added: Cy3 exosite-II aptamer, 400 nM; reading: higher = stronger binding; strand: GGTTGGTGTGGTTGG
# Target: Prothrombin, mature alpha-thrombin (F2, Homo sapiens, UniProt P00734)
# Notes: whole 15-mer aptamer, many near background
Modification,mean fluorescence intensity [a.u.]
2'F-ANA at 3 5 8 10 12,70.3
2'F-ANA at 1 2 4 7 8 9 11 12,251
2'F-ANA at 2 5 8 9 10 12 14 15,53.7
2'F-ANA at 2 3 5 6 8 10 11 15,52.7
2'F-ANA at 2 4 8 9 10 12,125
2'F-ANA at 2 4 8 10 11 12 13 14,62.5
2'F-ANA at 1 4 8 9 10 11 12,57.9
2'F-ANA at 1 4 8 9 11 12 15,271
2'F-ANA at 2 3 4 6 7 8 9 11 13 15,356
2'F-ANA at 4 6 7 8 9 11 13 14,104
2'F-ANA at 2 7 8 9 12 15,678
2'F-ANA at 1 4 9 10 12 13 14,58.7
2'F-ANA at 1 3 4 6 7 9 13 14,59.1
2'F-ANA at 2 6 7 9 12 13,459
2'F-ANA at 1 2 6 9 13 14,52.6
2'F-ANA at 4 6 7 8,412
2'F-ANA at 2 3 4 5 8 9 11 12 13,108
2'F-ANA at 3 5 7 8 9 10 11 13 14,112

# Series 2 — technique: RNA Bind-n-Seq; molecule type: RNA; sample: in vitro; concentration: 365 nM; reference: no-protein control; reading: higher = stronger binding
# Target: RNA binding protein fox-1 homolog 2, RRM domain, GST-SBP tag (RBFOX2, Homo sapiens, UniProt O43251-10, residues 100-194)
# Notes: natural RNA segment, single round, ends assumed
# Residues (chain): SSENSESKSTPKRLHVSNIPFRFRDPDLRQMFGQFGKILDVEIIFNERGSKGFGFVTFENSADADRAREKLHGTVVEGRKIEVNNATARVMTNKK
Strand,RBNS enrichment (R)
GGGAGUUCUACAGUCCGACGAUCCCUAAGCCACCCACAUAAGUACGCUGGUGCCGUGUCACCCAUGUUGAGCCGCUCCUGAUGGCUGACGGGCUCCCAGACCCUCACCUCGGACAUGGUGGUGGGGGAAGGACUGGAAUUCUCGGGUGCCAA,0.383
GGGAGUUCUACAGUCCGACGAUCCACCCUGGCUGAGGGCCAGCCUCAUCUGCAGAGCCCUGGAGGAGGCCCACCUAUGGACACAGCCCGAGAGAUGGGCGCAAGGGGUGCUGGGGGAGGCCUGCUAUCCUGCCUGGAAUUCUCGGGUGCCAA,0.575
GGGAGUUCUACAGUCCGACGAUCCUAUUCCAGCACUGGUUUUGAAUGCUGUAUGCAACCAGUCUGAAUACCACAUACGCUGCACUGUUCUUAGAGGGUUUCCAUACUUACCACCGAUCUACAAGGGUUGAUCCUGGAAUUCUCGGGUGCCAA,16.6
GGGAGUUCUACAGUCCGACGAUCGAGGCCCUUUAUUAUUGCUGCAGAAAACAAAAGCCUGGCUGAGUUGAUGUUUUACAUUCUCCCUUACUGAAAUCUACAUGACAUGAUGCUUCUUGCUGGGUUUUUGUACAUGGAAUUCUCGGGUGCCAA,0.65
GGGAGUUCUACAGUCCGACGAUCCUCCCUUAAAAUCUGGUCUGCUUAAUUUCAAUUUUUGUAUCCAUUCUAAUGAUGCAACAUAGCACAGAAUUACUGUGAUCAGUUUCUCAUCCAUACUGGGAAUUGUCUUGUGGAAUUCUCGGGUGCCAA,0.943
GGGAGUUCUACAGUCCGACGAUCUCUAAUUAAUAAUUCAAUUUUGAAAAUUCUCAAAAAAAUUUGAGGAUUUAAGCCUAGGGAUUUUAUUUUUAUAAAUACCAAAUCAUCAUUAGACUAAUCACUGGUGGAAAUGGAAUUCUCGGGUGCCAA,0.668
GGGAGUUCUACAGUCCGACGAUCAGAAUAUAAAUGAAUGCUUAAACAUUUGAAUACAGAUUCCUCCGGAUUGUUGAAUUCACUCAACUAGAAGUAAUAGGCGAUUUUAAAUCUUUAUAAAUGAUCUUGGGUAAUGGAAUUCUCGGGUGCCAA,1.24
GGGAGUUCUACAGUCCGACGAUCCUGUCAUUCCCAGCUCUGUGACCUACUGCUUGGUACUAAAAAGGAGUUUUCUUCCAAAAGCACUGUUUCCAGUCUGAGUAGGAGCUACCAGCCUGUGGCAAUCAGCAGGGUGGAAUUCUCGGGUGCCAA,0.352
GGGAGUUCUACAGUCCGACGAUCACACCUUCCAAACAGUGGCAGGGGCCACAGUGGCAGACAGGGUAGAGUACCCCAGGCAGUUUCUCAGCCUCGUCCGUUGUGUGGAGGGAAUACUGAAUUCAGUUAUCUCAUGGAAUUCUCGGGUGCCAA,0.355
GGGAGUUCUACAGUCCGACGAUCCUUUUGUUACGAUUCCAUUAGCAAAAAGCACAAAGAGGAGGCGUGUGUGAAGUGGCCUGGGGUUGUUCCAUAAUGAAGACUCAAGAAGACUGUUUCCCCACCACAGAUGUUGGAAUUCUCGGGUGCCAA,0.623
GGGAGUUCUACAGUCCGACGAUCUUUGUACUAAAGUUUAUAGGUCUGUGCCAGCUAGAGAGGAGUUGCUGUCAUUGCUAGUCGUGCUCUAGCAUACAACCCUGAAACCAUCCUAGGUGACAUUUUAGAAUUAAUGGAAUUCUCGGGUGCCAA,0.212
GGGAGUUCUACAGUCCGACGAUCUCCGCCGCCUGCCCCAGUGUGGGGGGAGAUACCUUUACCAUGAACUUACAGAAUUAAAGAUGGCCCAUAAGGAAUUCCAGACCAAUAUUUCUUCCUGCGGUUUAUUCUAUUGGAAUUCUCGGGUGCCAA,0.436

# Series 3 — technique: universal PBM; molecule type: double-stranded DNA, one strand shown; sample: in vitro; concentration: not given; reading: higher = stronger binding
# Target: Sal-like protein 4, full length isoform B (SALL4, Homo sapiens, UniProt Q9UJQ4-2, residues 1-616)
# Notes: 8-mer, flanks averaged, mean of replicates
Strand,E-score
ACGTGCGA,-0.168
CCCGGCAG,-0.389
AAACAGTA,0.233
TCTGTGAA,0.117
CCTTCCAA,-0.0322
CTAACACA,0.163
TCAAGTAA,0.274
AAAGAGAT,0.0579
CTCACTAC,0.0521
AAATCAGC,0.0824
AGCTCCCC,-0.288
CGATAATC,0.0476
CACGGCTG,-0.248
CAGATAGG,0.035
CCCATTGC,-0.15
GAACGTTC,-0.0797
GCTTAGTA,0.11
GTCCAACA,-0.151
ATCACTTG,0.0559
AGGGAAGA,0.0103
GCCACATA,0.0231
CACGGCCC,-0.279
CACCTTCG,-0.109
AGTATCGC,0.0386
CCGAAACG,-0.197

# Series 4 — technique: RNA Bind-n-Seq; molecule type: RNA; sample: in vitro; concentration: not given; reference: input RNA pool; reading: higher = stronger binding
# Target: RING finger protein unkempt homolog, zinc fingers 1-6, GST-SBP tag (UNK, Homo sapiens, UniProt Q9C0B0, residues 30-357)
# UniProt Q9C0B0, sequence (30-357, looked up): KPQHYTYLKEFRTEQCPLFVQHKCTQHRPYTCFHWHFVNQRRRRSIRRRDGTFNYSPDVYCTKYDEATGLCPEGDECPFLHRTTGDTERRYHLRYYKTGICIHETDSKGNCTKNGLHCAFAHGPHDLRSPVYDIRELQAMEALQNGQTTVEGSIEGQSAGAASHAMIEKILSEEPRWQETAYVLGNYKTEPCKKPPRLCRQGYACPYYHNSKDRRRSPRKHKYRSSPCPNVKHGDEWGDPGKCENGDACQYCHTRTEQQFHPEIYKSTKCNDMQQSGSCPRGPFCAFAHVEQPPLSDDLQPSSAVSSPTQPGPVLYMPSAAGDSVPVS
# Notes: RNA with constant flanks, human-mouse chimeric sites, ends assumed
Strand,bound/input enrichment [ratio]
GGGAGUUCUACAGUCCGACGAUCGCAAAGGAUGAUGAGGCGGCAGCUGUUGCCCUUUCCUCUCUCGUUCAUGCUUUGGAUGAGUUAAACAUGGUGGCCAUCGUCCGAUAUGCUUAUGACAAAAGAGCUAAUCCUCAAGUUGGUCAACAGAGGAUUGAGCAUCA,0.158
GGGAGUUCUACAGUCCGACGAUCAGAUUCCCCCUCCUGAGACCUCCUCCGAAGUUGGAGUCUCUUACAGAUGCCUCAUCCCCUGUUAGUAUUUUAGUUUGGACCACCCAGCCUUGGACGAUUCCCGCCAACCAGGCAAUUUGCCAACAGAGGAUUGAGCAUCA,2.14
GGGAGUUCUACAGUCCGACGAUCGUAUUUGUCCCAUUUUUACUCGUGUUUUUAAGUGUAUUUUUAUAAGAUACAUGUAUUUACAAUUGAGCUUUUGUUACAUAAUGCUGAAAUGCUACUGGAGAUUAUGAAAAAUGUUUCAAUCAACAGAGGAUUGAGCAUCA,0.143
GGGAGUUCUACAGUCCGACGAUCACUCAGAGAUCCACCUCCCAAAGUGCUGGGAGUAAAGGUGUGGCCACCACACCUAACUUGAUGGAUAUAUAUUUUUUUUAAUAUGAAUCUUCCUGUUCUUCAUCCAGGCAAGAACGGGUUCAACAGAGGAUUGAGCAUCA,0.323
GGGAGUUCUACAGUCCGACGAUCCGCUUGGAUGAGGCUGGUGUCACAGAUGAAGUGCUAGAUUCUGCCAUGCAAGCCUUCCUUCUGGAGGUUAUCGUUAAACAUGGGGAGCCGGCACCUUAUUUAUGUAACAAAGAUCCGUUUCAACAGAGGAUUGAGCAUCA,0.106
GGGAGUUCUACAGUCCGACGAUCAGAUUCCCCCUCCUGAGACCUCCUCCGAAGUUGGAGUCUCUUACAGAUGCCUCAUCCCCUGUUAGCGUUUUAGUUUGGACCACCCAGCCUUGGACGAUUCCCGCCAAUGAAGCUGUUUGCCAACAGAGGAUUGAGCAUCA,1.5
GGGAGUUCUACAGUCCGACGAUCACUCAGAGAUCCACCUCCCAAAGUGCUGGGAGUAAAGGUGUGGCCACCACACCUAACUUGAUGGAUAUAUAUUUUUUUUAAUAUGAAUGAACUCUUGCGUCCAGGGAAGAAAGAUUUGUUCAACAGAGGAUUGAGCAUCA,0.799
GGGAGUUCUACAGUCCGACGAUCCUGUGUGUGCUGAAUAAUGAUUUGUGAAAGAAGUUUUCCAAGUUGUAAACCCAUGCUGUUAUUAUAGUUGCUGCAAAAUGUUCUUCCUGAUAUUGAUUUUAUUUGUUAACUGAAGGUCUCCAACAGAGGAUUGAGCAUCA,0.684
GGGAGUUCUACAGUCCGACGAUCCCCCAAUACCAUUUGCAGGUCUGGAACUGCACUCUCUUUUUUAAAAAAUAUGCAUAUAUUUUAGGGCUGUAGAUUUAUUUUCCUGGUUUUGUUUUUCUUGCUUAUUCUUUGAGCACAGAACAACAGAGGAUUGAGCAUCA,1.43
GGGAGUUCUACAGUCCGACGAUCGGACCAUAAUCAUGGAGGACAUAAUGCAGCUCCCCAAAGCGCGCGUCAACGCCAGCAUGUUACCACAAUUCAUCGACCGGCCCGUGUGCUUCGUGGGGAAGCUGGAAAAGAUUCAUCCCACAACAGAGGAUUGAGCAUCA,0.108
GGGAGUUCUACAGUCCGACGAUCUUUGUAUUUAUGCUAAGCACACGUGCUGGUGGUCUGGGCAUCAAUCUUGCGACUGCUGAUGUAGUCAUUUUAUAUGACUCAGAUUGGAAUCCGCAAGUUGAUCUUCAGGCUAUGGACCGUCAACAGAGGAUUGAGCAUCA,0.109

# Repeated from above (series 3):
Strand,E-score
CGATAATC,0.0476
AAACAGTA,0.233
CTAACACA,0.163
GCCACATA,0.0231
CCTTCCAA,-0.0322
GAACGTTC,-0.0797
AAATCAGC,0.0824
TCAAGTAA,0.274
AGCTCCCC,-0.288
AGGGAAGA,0.0103
GCTTAGTA,0.11
